Published values collected from several papers.
Numbered parts are unrelated; each lists some results of a single study.
UniProt P09619, sequence (whole entry, looked up): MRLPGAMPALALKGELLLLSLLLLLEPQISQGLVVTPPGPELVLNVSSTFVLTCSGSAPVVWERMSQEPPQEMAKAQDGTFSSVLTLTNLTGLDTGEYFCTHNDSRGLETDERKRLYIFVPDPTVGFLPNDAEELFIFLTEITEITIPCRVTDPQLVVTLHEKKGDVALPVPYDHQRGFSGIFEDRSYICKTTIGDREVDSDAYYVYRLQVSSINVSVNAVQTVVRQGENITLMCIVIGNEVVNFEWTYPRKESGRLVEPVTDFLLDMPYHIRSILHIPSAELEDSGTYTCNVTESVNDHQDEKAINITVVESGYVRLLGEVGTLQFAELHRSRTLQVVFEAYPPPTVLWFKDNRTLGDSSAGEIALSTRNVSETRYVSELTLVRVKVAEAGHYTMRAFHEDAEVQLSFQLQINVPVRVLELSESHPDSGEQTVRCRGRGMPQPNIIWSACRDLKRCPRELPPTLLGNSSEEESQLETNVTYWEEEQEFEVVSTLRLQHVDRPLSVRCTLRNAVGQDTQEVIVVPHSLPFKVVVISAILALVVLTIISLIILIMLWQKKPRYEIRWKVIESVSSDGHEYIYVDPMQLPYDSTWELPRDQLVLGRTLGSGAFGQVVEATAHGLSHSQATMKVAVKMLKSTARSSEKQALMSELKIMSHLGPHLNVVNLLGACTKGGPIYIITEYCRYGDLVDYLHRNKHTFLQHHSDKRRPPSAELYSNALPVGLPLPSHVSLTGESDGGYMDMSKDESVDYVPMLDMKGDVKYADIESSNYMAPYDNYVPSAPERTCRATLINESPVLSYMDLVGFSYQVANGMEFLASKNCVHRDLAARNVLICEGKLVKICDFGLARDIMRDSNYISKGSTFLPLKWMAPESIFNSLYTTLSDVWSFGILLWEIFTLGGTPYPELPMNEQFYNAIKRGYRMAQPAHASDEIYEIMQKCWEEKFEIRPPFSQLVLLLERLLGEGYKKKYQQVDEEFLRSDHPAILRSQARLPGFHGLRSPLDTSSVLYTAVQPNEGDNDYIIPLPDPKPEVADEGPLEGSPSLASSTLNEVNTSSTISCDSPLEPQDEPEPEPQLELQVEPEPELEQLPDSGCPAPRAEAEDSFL
UniProt O14976, sequence (whole entry, looked up): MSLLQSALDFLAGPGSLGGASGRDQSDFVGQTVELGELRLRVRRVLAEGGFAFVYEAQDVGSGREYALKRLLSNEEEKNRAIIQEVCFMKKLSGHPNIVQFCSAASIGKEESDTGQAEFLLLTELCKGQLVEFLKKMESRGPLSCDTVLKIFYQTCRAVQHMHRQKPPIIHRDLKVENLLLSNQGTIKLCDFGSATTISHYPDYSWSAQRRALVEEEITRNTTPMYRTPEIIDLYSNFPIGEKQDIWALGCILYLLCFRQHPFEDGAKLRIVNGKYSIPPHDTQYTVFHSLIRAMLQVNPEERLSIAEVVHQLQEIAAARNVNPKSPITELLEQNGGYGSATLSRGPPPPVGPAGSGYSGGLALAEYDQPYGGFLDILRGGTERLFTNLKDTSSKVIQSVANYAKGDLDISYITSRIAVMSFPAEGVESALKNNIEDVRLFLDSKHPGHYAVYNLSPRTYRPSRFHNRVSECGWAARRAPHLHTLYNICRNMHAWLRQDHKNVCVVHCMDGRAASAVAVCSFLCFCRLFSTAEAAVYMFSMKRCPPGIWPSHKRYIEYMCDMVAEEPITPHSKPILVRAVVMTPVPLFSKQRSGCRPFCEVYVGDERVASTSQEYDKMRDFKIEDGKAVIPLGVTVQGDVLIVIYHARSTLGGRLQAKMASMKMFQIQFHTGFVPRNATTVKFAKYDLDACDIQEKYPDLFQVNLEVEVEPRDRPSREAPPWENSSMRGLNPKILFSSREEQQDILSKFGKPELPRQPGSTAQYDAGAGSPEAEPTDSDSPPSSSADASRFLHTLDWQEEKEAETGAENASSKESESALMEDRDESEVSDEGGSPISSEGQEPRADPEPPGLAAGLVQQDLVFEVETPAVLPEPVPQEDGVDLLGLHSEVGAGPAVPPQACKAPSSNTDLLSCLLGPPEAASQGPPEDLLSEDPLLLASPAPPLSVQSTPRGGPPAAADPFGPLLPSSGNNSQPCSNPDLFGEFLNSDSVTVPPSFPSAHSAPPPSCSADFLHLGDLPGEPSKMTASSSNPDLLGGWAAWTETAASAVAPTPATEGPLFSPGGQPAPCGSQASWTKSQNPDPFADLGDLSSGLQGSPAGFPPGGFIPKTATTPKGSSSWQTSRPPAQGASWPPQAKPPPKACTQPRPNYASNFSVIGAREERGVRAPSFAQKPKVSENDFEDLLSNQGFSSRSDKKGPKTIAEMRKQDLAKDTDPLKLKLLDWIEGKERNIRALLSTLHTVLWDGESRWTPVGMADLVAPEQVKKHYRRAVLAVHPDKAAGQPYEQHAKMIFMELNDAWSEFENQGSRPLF
UniProt Q9HC98, sequence (whole entry, looked up): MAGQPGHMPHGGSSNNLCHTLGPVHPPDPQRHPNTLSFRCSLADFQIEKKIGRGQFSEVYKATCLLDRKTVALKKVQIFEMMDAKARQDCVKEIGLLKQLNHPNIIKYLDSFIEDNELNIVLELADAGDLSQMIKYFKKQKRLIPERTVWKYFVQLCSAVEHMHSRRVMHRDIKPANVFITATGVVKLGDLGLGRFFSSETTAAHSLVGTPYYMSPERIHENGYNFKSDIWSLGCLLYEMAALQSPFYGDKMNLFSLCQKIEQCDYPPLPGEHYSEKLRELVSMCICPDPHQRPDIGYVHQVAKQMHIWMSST
UniProt Q14164, sequence (whole entry, looked up): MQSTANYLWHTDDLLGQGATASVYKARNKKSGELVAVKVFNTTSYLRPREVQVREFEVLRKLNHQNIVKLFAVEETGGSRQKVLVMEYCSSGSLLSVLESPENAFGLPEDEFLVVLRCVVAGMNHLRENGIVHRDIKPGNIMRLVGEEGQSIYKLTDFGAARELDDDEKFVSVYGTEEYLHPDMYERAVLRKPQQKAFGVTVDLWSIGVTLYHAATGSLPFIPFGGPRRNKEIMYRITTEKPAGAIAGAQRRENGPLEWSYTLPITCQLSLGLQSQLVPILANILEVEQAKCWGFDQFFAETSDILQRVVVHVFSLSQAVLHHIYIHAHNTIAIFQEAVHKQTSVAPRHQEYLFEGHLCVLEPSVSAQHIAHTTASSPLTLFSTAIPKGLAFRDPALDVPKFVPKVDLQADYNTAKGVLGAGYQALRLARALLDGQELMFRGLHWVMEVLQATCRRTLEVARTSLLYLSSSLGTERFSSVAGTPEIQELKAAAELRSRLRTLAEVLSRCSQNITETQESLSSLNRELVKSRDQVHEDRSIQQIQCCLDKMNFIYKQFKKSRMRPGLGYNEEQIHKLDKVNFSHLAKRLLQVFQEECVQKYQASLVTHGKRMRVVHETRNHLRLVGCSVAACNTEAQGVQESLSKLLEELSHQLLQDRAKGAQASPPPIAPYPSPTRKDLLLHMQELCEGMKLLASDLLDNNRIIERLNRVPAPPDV

Series 1 — method: protein-binding microarray; form: double-stranded DNA, one strand shown; sample: in vitro; tested at: 250 nM; setting: 60-bp whole probe; with: salmon DNA 0.4 mg/ml; reference: random background probes; direction: higher = stronger binding; shared flanks, not repeated: GCCTAGCAC … GTCTTGATTCGCTTGACGCTGCTG
Target: Interferon regulatory factor 7, full length, phosphomimetic (IRF7, Homo sapiens, UniProt Q92985, residues 1-503, S101K/S471D/S472D/S475D/S476D/S477D/S483D/S484D/S487D)
Residues (chain): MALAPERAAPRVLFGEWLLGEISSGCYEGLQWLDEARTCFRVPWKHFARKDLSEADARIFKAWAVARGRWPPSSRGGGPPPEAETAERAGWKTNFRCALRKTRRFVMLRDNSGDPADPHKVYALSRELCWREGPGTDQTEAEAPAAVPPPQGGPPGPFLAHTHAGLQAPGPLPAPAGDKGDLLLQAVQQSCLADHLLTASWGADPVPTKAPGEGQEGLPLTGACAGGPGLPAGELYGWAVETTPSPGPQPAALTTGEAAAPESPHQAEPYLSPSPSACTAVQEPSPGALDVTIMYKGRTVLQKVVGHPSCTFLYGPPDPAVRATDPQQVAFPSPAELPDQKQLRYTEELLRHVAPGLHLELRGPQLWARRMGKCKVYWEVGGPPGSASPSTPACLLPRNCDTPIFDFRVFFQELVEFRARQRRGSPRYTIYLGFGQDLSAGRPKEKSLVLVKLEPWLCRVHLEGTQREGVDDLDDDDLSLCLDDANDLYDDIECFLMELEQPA
Strand | log fluorescence
GACGGTGTCGGGTATCGGGACGTGCTA | -0.41 z-score
TTAGATATCAGATTCGATTAGTGCTAG | 2.91 z-score
GACGGTATCGACACTTGGGACGTGCTA | 0.0919 z-score
GACGGACTGGGGACTGGGGAAGTGCTA | -0.636 z-score
TTAGGCCTGGGGACTGGGTTAGTGCTA | -0.646 z-score
GACGGTATAGACTATCGGGACGTGCTA | -0.699 z-score
GACGGTTTCGACTATAGGGACGTGCTA | 4.83 z-score
GACGATATCAGACTGCAGACGTGCTAG | -0.217 z-score

Series 2 — observed: cell-free assay; method: competition with immobilised ligand; tested at: 1 µM
SMILES: O=C(NS(=O)(=O)c1ccc(NCC2CCOCC2)c([N+](=O)[O-])c1)c1ccc(N2CCN(Cc3ccc(C(F)(F)F)cc3-c3ccc(Cl)cc3)CC2)cc1Oc1cnc2[nH]ccc2c1
target | remaining binding [%]
Cyclin-G-associated kinase (GAK, Homo sapiens, UniProt O14976) | 100
Serine/threonine-protein kinase Nek6 (NEK6, Homo sapiens, UniProt Q9HC98) | 89
Platelet-derived growth factor receptor beta (PDGFRB, Homo sapiens, UniProt P09619) | 100
Inhibitor of nuclear factor kappa-B kinase subunit epsilon (IKBKE, Homo sapiens, UniProt Q14164) | 65

Series 3 — observed: enzyme activity; mode: inhibitor; tested at: 0.5 µM; reference: control
Target: Aurora kinase A (AURKA, Homo sapiens, UniProt O14965)
Target sequence (O14965 1-403): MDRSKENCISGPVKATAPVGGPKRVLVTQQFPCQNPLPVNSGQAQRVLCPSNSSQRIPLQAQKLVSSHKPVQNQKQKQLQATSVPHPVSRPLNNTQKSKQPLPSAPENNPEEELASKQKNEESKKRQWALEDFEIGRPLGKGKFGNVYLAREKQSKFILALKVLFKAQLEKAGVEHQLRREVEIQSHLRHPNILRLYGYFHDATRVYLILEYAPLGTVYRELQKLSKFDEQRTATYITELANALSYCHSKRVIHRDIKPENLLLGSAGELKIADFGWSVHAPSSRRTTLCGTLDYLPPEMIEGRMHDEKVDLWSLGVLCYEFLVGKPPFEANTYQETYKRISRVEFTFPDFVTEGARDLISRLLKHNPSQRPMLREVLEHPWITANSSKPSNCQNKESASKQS
Structure (SMILES) | remaining activity [%]
Cn1c2ccccc2c2c3c(c4c5ccccc5n(CCC#N)c4c21)CNC3=O | 56.8
COc1ccc(OC)c2c(=S)c3ccccc3[nH]c12 | 116
CC(C)[C@H](CO)Nc1nc(Nc2cc(N)cc(Cl)c2)c2ncn(C(C)C)c2n1 | 80.5
O=C(O)c1ccc2c3c1cccc3c(=O)n1c3ccccc3nc21 | 78.6
CCOC(=O)c1c(C)[nH]c(/C=C2\C(=O)Nc3ccccc32)c1C | 90.4
Cn1sc(=O)n(Cc2ccccc2)c1=O | 104
COc1cc2ncnc(Nc3ccc(F)c(Cl)c3)c2cc1OCCCN1CCOCC1 | 95.3
Cc1cccc(-c2[nH]c(C(C)(C)C)nc2-c2ccc3c(c2)OCO3)n1 | 93.4
O=C1NC(=O)C(c2cn(CCCn3ccnc3)c3ccccc23)=C1Nc1ccccc1 | 78.8
CNC(=O)c1cc(Oc2ccc(NC(=O)Nc3ccc(Cl)c(C(F)(F)F)c3)cc2)ccn1 | 103

Series 4 — method: RNAcompete; form: RNA; sample: in vitro; tested at: 20 nM; setting: 7-mer, probes averaged, single round; reference: mean of 7-mers; direction: higher = stronger binding
Target: PABPC1L2, full length, GST fusion (mouse, UniProt A0ABA7IW68)
Strand | 7-mer Z-score
GCGUAAU | -0.179
CUAAAGA | 0.553
UAAUGAC | -0.079
AAACGCG | 1.05
CGUUUCU | -0.447
CUUGUCU | -0.371
GCUGACA | -0.0428
AAGCCUA | -0.108
